Assay results collected from several papers.
Protocols differ between the studies behind these lines. Values joined by “and” are separate records of one study, mostly repeats; a detail may differ. ± gives the spread as reported.

| SMILES | cell line | test | system | setting | scale | measurement | value |
| --- | --- | --- | --- | --- | --- | --- | --- |
| C=CCn1c(=O)c2cnc(Nc3ccc(N4CCN(C)CC4)cc3)nc2n1-c1ccc2c(n1)[C@@](O)(CC)CC2 | MDA-MB-231 | flow cytometry | – | concentration not given | – | pHH3-negative cells | 89.8% |
| O=c1[nH]nc(OCCCc2ccc(Cl)cc2)c(NCc2cccnc2)c1Br | HEK293T | RNA-seq, item: DNAJB1 mRNA | – | 10 µM, 6 h | baseline: vehicle | log2 fold change | -0.574 |
| CCOc1cc2ncc(C#N)c(Nc3ccc(F)c(Cl)c3)c2cc1NC(=O)/C=C/CN(C)C | SNU-1040 | – | – | 0.33 µM, 72 h, 100% DMSO | baseline: vehicle | cell growth | 83.3% |
| COc1ccc(-n2nc(C(C)=O)s/c2=N\N=C(/C)c2ccc(NC(=O)c3ccc(C)cc3)cc2)cc1 | HepG2 | – | – | 0.625 µM | – | toxicity | 82.2% |
| Cc1nn(-c2nc3c(F)cc(F)cc3s2)c(O)c1C(c1ccc(C(F)(F)F)cc1)c1c(C)nn(-c2nc3c(F)cc(F)cc3s2)c1O | RAW-ISG | RT-qPCR | – | 5 µM, 312 h, unit not given, added: HT-DNA | baseline: DMSO | IFNB1 mRNA level | 0.384 and 0.393 and 0.395 |
| CSCC[C@H](NC(=O)[C@H](Cc1ccc(OS(=O)(=O)O)cc1)NC(=O)[C@@H](N)CC(=O)O)C(=O)NCC(=O)N[C@@H](Cc1c[nH]c2ccccc12)C(=O)N[C@@H](CCSC)C(=O)N[C@@H](CC(=O)O)C(=O)N[C@@H](Cc1ccccc1)C(N)=O | HEK293T control virus | agonist, calcium mobilization | – | 0.00512 nM, no receptor expressed | higher = more calcium release | calcium response | 0.0927 a.u. and 0.0248 a.u. |
| C/C=C/C/C=C/CCC(=O)[C@H]1O[C@H]1C(N)=O | MDA-MB-231, BAX/BAK siRNA knockdown | cell viability, CellTiter-Glo | – | – | baseline: MDA-MB-231 minus MCF-10A average, direction not given | Z score difference | 77.8 |
| COc1ccc(N)cc1-c1c[nH]c2ncc(-c3cncc(C(=O)N(C)C)c3)cc12 | Ba/F3 BCR-ABL wild type | cell proliferation | – | 72 h | – | GI50 | 0.218 ± 0.0303 µM |
| CCCCCCCCCCCCCCCCCCOc1ccccc1CC(=O)OCC[N+]1(C)CCOCC1 | NSCLC panel (nine cell lines) | – | – | 10 µM | – | mean growth inhibition | 38.4% |
| O=C(C[C@@H](C(F)F)n1ccc(F)n1)N1CCC(O)(Cn2cnc3c(cnn3-c3ccc(F)cc3)c2=O)CC1 | CHP-212 USP7 V517F knock-in clone | SRB | – | 20 µM | – | viability | 15.7% |
| FC(F)(F)C1=C/C(=C/CCCCCCOCc2ccccc2)c2cc3c(cc21)OCO3 | MM1.S bortezomib-resistant | Western blot | – | 0.5 µM, 8 h | – | Nrf2 stabilization | no effect |
| Nc1ccn([C@@H]2O[C@H](CO)[C@@H](O)[C@H]2O)c(=O)n1 | activated human T cells | – | – | concentration not given, added: adenosine | baseline: DMSO | T cell proliferation | 22.7% and 45.8% and 54.3% and 24.9% and 32.4% |
| CCCCN1C[C@H](O)[C@@H](O)[C@H](O)[C@H]1CO | Sandhoff disease patient fibroblasts | glycosphingolipid lowering, LC-MS/MS, item: GM3 d18:1/18:0 | human | – | – | IC50 | 6.02 µM |
| C=Cc1c2[n-]c(c1C)/C=c1\[n-]/c(c(C)c1C=C)=C\c1[n-]c(c(CCC(=O)O)c1C)/C=c1\[n-]c(c(C)c1CCC(=O)O)=C2.[Sn+4] | SH-SY5Y | RNA-seq, item: HSPB7 mRNA | – | 5 µM, 5 h | baseline: untreated cells | fold change | 1.53 |
| CCN1CCN(Cc2ccc(C(=O)Nc3ccc(C)c(Oc4ccc5c(c4)CC(=O)N5)c3)cc2C(F)(F)F)CC1 | SNU-1040 | – | – | 1 µM, 3 days | baseline: vehicle, 100% DMSO | cell growth | 95% |
| CCCC(=O)Oc1c(C)c(O)c(C(=O)/C=C/c2ccccc2)c(OC)c1C | KKU-M213 | SRB | – | – | baseline: normal over KKU-M213 IC50 | selectivity index | 1.09 |
| Cc1cc(Nc2ncc(Cl)c(Nc3ccccc3S(=O)(=O)C(C)C)n2)c(OC(C)C)cc1C1CCNCC1 | CLB-BAR | phosphoproteomics LC-MS/MS, item: AP2B1 phosphorylation | – | 200 nM, 60 min | baseline: untreated | log2 fold change | -1.53 |
| COc1cnc2cccc(N3CCc4c(cc(Cn5ccnc5C)cc4-c4cn(C)nc4C(F)(F)F)C3=O)c2c1 | CAL-27 | cell growth, inhibitor | – | 120 h | – | EC50 | 9.68 µM |
| Cn1cc(Nc2nccc(-c3ccc4c(c3)CN(C3COC3)CC[C@H]4NC(=O)c3cn(C(C)(C)C)nn3)n2)cn1 | mouse splenic B cells | item: IL-2 signalling | – | 30 mg/kg, IgD-activated in vivo | baseline: vehicle, direction not given | pathway activation z-score | 1.67 |
| CCCCN1C[C@H](O)[C@@H](O)[C@@H](O)[C@H]1CO | sample D patient fibroblasts | Gb3 level lowering, LC-MS/MS, item: Gb3 d18:1/18:0 | – | 216 h | – | IC50 | 9.9 µM |
| COc1ccc(-n2nc(C(C)=O)s/c2=N\N=C(/C)c2ccc(NC(=O)c3ccccc3)cc2)cc1 | MCF7 | – | – | 0.156 µM | – | toxicity | 64% |
| Cc1nc(NC(=O)N2CCC[C@H]2C(N)=O)sc1-c1ccnc(C(C)(C)C(F)(F)F)c1 | SNU-1076 | cell growth, CellTiter-Glo | – | 120 h | – | EC50 | 1.14 µM |

| SMILES | cell line | test | system | setting | scale | measurement | value |
| --- | --- | --- | --- | --- | --- | --- | --- |
| C[C@]12CCCN1CC1=NNC(=O)c3cc(F)cc4[nH]c2c1c34 | HT-29 colorectal cancer cells | cell viability | – | concentration not given, added: with temozolomide | – | EC50 | > 3 µM |
| CC(C)Cn1cnc2c(N)nc3ccccc3c21 | THP-1-derived macrophages | induction, ELISA | – | 10 µg/mL, 24 h | baseline: untreated | IL-6 level | 44 fold |
| Nc1cccc2c1C(=O)N(C1CCC(=O)NC1=O)C2=O (centres unmarked) | MM1.S resistant to compound | XTT | – | 0.2 µM | – | viability | 103% and 100% and 81% |
| Cn1cc(-c2ccc(-c3cncc(Cl)c3N3CCC4(CCNC4=O)CC3)cc2)cn1 | COLO 205 | gene expression, microarray, item: ZNF548 mRNA | – | concentration not given, 2 h | baseline: untreated cells | log2 fold change | 2.13 |
| Cn1c(Nc2nc3ccc(C(F)(F)F)cc3s2)nc2cc(C(=O)NCCOCCO)ccc21 | SH-SY5Y | RNA-seq, item: CCN1 mRNA | – | 5 µM, 5 h | baseline: untreated cells | fold change | 3.21 |
| CCCCCCCCCCCCCCCCCCOc1ccc(CC(=O)OCC[N+]2(C)CCOCC2)cc1 | NSCLC panel (nine cell lines) | – | – | 10 µM | – | mean growth inhibition | 3.79% |
| C=CC(=O)N1[C@@H](c2ccc3c(c2)OCO3)c2[nH]c3ccccc3c2C[C@H]1C(=O)NC | rat DRG neurons | – | – | 30 µM, 48 h, added: vincristine 40 nM | – | mean neuron degeneration | 17.1% |
| CCNNC(=O)c1ccc(CN(CC(=O)NCc2ccccc2)C(=O)c2ccc(N(C)C)cc2)cc1 | A2780cisR | flow cytometry, item: subG1 nuclei | – | concentration not given | – | apoptotic cells | ~60% |
| CCn1cc(-c2cc(Cn3ccnc3)cc3c2CCN([C@H](c2cc(OC)ccn2)C2CC2)C3=O)c(C(F)(F)F)n1 | HMC18 | cell growth | – | 120 h | – | EC50 | 26.7 µM |
| O=C(/C=C/C=C/C=C/C1CCCCC1)NC1=C[C@@](O)(/C=C/C=C/C=C/C(=O)NC2=C(O)CCC2=O)[C@@H]2O[C@@H]2C1=O | LS180 | cell growth, CellTiter-Glo | – | 78 h | – | GI50 | 29.2 µM |
| CCn1cc(-c2cc(Cn3ccoc3=N)cc3c2CCN([C@@H](C)c2cc(OC)ccn2)C3=O)c(C(F)(F)F)n1 | SNU1 | cell growth, inhibitor | – | 120 h | – | EC50 | 0.25 µM |
| O=c1ccn([C@@H]2O[C@H](CO)[C@@H](O)[C@H]2O)c(=O)[nH]1 | activated human T cells | – | human | 100 nM | – | T cell proliferation | 29.5% and 16.9% and 15.6% and 37.5% and 31.8% |
| COc1cccc2c1C(=O)c1c(O)c3c(c(O)c1C2=O)C[C@@](O)(C(=O)CO)C[C@@H]3O[C@H]1C[C@H](N)[C@H](O)[C@H](C)O1 | HepG2 | item: metallothionein protein | – | 24 h, distribution mode 2 | – | point of departure | 0.219 µM |
| CCCCCCCC(=O)Oc1c(C)c(O)c(C(=O)/C=C/c2ccccc2)c(OC)c1C | KKU-M213 | SRB | – | – | baseline: normal over KKU-M213 IC50 | selectivity index | 1.03 |
| CCCCc1oc2ccc(NS(C)(=O)=O)cc2c1C(=O)c1ccc(OCCCN(CCCC)CCCC)cc1 | human embryonic stem cell aggregates | mRNA level, microarray, item: DLL3 | – | 0.5 µM, 120 h | baseline: untreated, down-regulated | fold change | 1.9 fold |
| C=CC[C@@H]1c2ccc(OC)c(OC)c2CN2CCc3cc4c(cc3[C@H]12)OCO4 | HEK293 transfected | ATP-evoked current, whole-cell patch clamp | – | 30 µM, mutant F103W | – | normalised current | 0.778 and 0.989 and 0.775 |
| [Cl-].[Cl-].[Os+2].c1cnc2c(c1)ccc1cccnc12.c1cnc2c(c1)ccc1cccnc12.c1cnc2c(c1)ccc1cccnc12 | SK-MEL-28 | cell viability, resazurin | – | dark, 1% O2 hypoxia | baseline: dark EC50 over visible EC50 | phototherapeutic index | 1 |
| Nc1ncnc2nc(-c3ccc(N4CCOCC4)nc3)cc(-c3cccc(Br)c3)c12 | activated human T cells | – | human | 316 pM | – | T cell proliferation | 0% and 0.2% and 2.2% |
| CCc1cnc(N2CCC(c3nc(COc4ccc(-n5cnnn5)cc4)cs3)CC2)nc1 | HEK-293T | RNA-seq GSEA, item: HALLMARK_DNA_REPAIR | – | concentration not given | direction not given | normalized enrichment score | -1.52 |
| Cn1cc(-n2cnc3c(NCc4nc5cc(Cl)c(Cl)cc5[nH]4)nc(N4CCOCC4)nc32)cn1 | MDA-MB-231 | cell viability, CellCounting-Lite | – | 24.69 nM, 37 °C | higher = more viable cells | luminescence signal | 291000 a.u. and 247000 a.u. and 282000 a.u. |
| Nc1ncnc2c1ncn2[C@@H]1O[C@H](CO)[C@@H](O)[C@H]1O | activated human T cells | item: hypoxanthine | – | 30 µM | baseline: DMSO | log2 fold change | 2.7 and 1.9 |
| CC(C)NCC(O)c1ccc(O)c(O)c1 (centres unmarked) | mouse ventricular cardiomyocytes | – | – | dose not given, 0.283 s | – | sarcomere length | 1.8 µm |
